Published values collected from several papers.
Protocols differ between the studies behind these lines. ± gives the spread as reported.

COC(=O)CNC(=O)C[C@@H]1N=C(c2ccc(Cl)cc2)c2c(sc(C)c2C)-n2c(C)nnc21  IC50 (acute leukaemia and medulloblastoma lines; cell growth; 72 h): 0.0099 to 0.359 µM
N.N.[Cl][Pt][Cl]  IC50 (CCD-18Co colon fibroblasts; cell viability, MTS; 72 h): 64.1 ± 1.6 µM
Cc1ccc(NC(=O)Cn2cnc3ccccc3c2=O)c(O)c1  IC50 (MDA-MB-231; cell growth or viability, crystal violet; 48 h): > 100 µM
CC1(C)Cc2c(-c3ccccc3)c(-c3ccc(Cl)cc3)c(CC(=O)O)n2C1  IC50 (AGS; IL-8 secretion; 24 h, with: IL-1β 1 ng/mL): 1.1 µM
N.N.[Cl][Pt][Cl]  IC50 (DU-145; cell growth or viability, MTT; 24 h): 79.2 µM
CCN(CC)CCCCNc1ncc2cc(-c3c(Cl)cccc3Cl)c(NC(=O)NC(C)(C)C)nc2n1  IC50 (HEK293T ERR reporter line; cell viability, qHTS): 21.1 µM
N=C(N)c1ccc(-c2ccc(-c3ccco3)o2)c(F)c1  mutant frequency (Salmonella enterica; TA1535; 20 µM, 48 h, with: sodium azide after pre-exposure; baseline: sodium azide alone): 17%
CC(N)C(O)CCCCCCCCCCCCCCC(=O)CCCCCCCC(O)C(C)N (stereo not shown)  IC50 (MCF-12A; cell growth or viability, resazurin; 96 h): 20.8 µM
O=C(c1cc2c(F)cc(F)cc2[nH]1)N1CCN(C(=O)C23CC4CC(CC(C4)C2)C3)CC1  IC50 (KNS-42; cell growth or viability, resazurin; 72 h): 5.04 µM
C#CC[C@H](N)C(=O)N[C@@H](C)C(=O)N1CCC[C@H]1C(=O)N1CCC[C@H]1C(=O)NCC(=O)N[C@@H](CCCN)C(=O)N[C@@H](CCCNC(=N)N)C(=O)N[C@@H](CC(C)C)C(=O)N[C@@H](CCCNC(=N)N)C(=O)N[C@@H](CO)C(=O)NCC(=O)N[C@@H](CCCNC(=N)N)C(=O)N[C@@H](CO)C(=O)N[C@H](C(=O)NCC(=O)N[C@@H](C)C(=O)N1CCC[C@H]1C(=O)N[C@@H](CC(C)C)C(=O)N[C@H](C(=O)N[C@@H](CCCNC(=N)N)C(=O)NCC(=O)N[C@@H](CO)C(N)=O)[C@@H](C)O)[C@@H](C)O  IC50 (A2780cisR; cell growth or viability, MTT; 72 h, drug-resistant strain): > 200 µM
Nc1cccc2c(N)cccc12  IC50 (HepG2; mitochondrial membrane potential, fluorescence plate reader; 1 h): inactive
N.N.[Cl][Pt][Cl]  IC50 (Hep3B; cell growth or viability, trypan blue; 48 h, dark): 98.6 µM
C=C(C)C1CC=C(COC(=O)CCC(=O)OC2OC3OC4(C)CCC5C(C)CCC(C2C)C35OO4)CC1 (stereo not shown)  IC50 (SK-MEL-24; cell viability, MTT; 24 h, with: deferoxamine 20 µM, 1 h before): 0.16 ± 0.04 µM
CC(C)[C@@H]1NC(=O)[C@H](C)OC(=O)[C@@H](C(C)C)NC(=O)[C@@H](C(C)C)OC(=O)[C@H](C(C)C)NC(=O)[C@H](C)OC(=O)[C@@H](C(C)C)NC(=O)[C@@H](C(C)C)OC(=O)[C@H](C(C)C)NC(=O)[C@H](C)OC(=O)[C@@H](C(C)C)NC(=O)[C@@H](C(C)C)OC1=O  IC50 (U-251; cell growth or viability, SRB): 0.0076 µM
N.N.[Cl][Pt][Cl]  IC50 (MCF-10A; cell growth or viability, MTT): 29.5 µM
Cc1c(OCC(F)(F)F)ccnc1C[S+]([O-])c1nc2ccccc2[nH]1 (stereo not shown)  IC50 (PANC-1; colony formation): 58.6 µM
COc1ccc(C[C@H]2NC(=O)/C=C/C[C@@H]([C@H](C)[C@@H](OC(=O)CNC(=O)CCc3cn(CCOCCOCCOCCOCC(=O)NCc4ccc(CN5C(=O)[C@H]6CC(=O)N[C@@H](CCCNC(=N)N)C(=O)NCC(=O)N[C@@H](CC(=O)O)C(=O)NC[C@H]5C(=O)N6)cc4)nn3)[C@@H](Cl)c3ccccc3)OC(=O)[C@H](CC(C)C)OC(=O)C(C)(C)CNC2=O)cc1Cl  IC50 (M21 human melanoma (integrin αvβ3-positive); cell viability, MTT; 2 h treatment plus 70 h): 0.261 ± 0.0458 µM
CO[C@H]1/C=C\C=C(/C)C(=O)NC2=CC(=O)C(NCCN(C)C)=C(C[C@@H](C)C[C@H](OC)[C@H](O)[C@@H](C)/C=C(\C)[C@@H]1OC(N)=O)C2=O  IC50 (H3255 (EGFR L858R); cell viability, Alamar Blue; 120 h): 0.021 ± 0.01 µM
COc1cc2c(c(OC)c1OC)-c1ccc(N)c(=O)cc1[C@@H](NC(C)=O)CC2  IC50 (HT-1080 MT1-MMP positive; cell viability, MTT; 24 h exposure, read 96 h post treatment): 0.036 ± 0.005 µM
CC(NC(=O)c1cc2ccccc2[nH]1)C12CC3CC(CC(C3)C1)C2 (stereo not shown)  IC50 (KNS-42; cell growth or viability, resazurin; 72 h): > 10 µM
O=P12CN3CN(CN(C3)C1)C2  IC50 (DU-145; cell growth or viability, MTT; 24 h): > 500 µM
C#Cc1cccc(Nc2ncnc3cc(OCCOC)c(OCCOC)cc23)c1  IC50 (SK-BR-3; cell death, MTT and trypan blue; 72 h): 5 µM
N.N.[Cl][Pt][Cl]  IC50 (NCI-H838; cell growth or viability, MTT; 4 h): 52.9 µM
CC(C)c1ccc2c(c1)CC[C@H]1[C@](C)(CN)CCC[C@]21C  IC50 (SBcl2; cell growth or viability, MTS; 24 h): 7.41 µM
N=C(N)NCCC[C@H](NC(=O)[C@H](Cc1c[nH]c2ccccc12)NC(=O)[C@H](CCC(N)=O)NC(=O)[C@H](Cc1c[nH]c2ccccc12)NC(=O)[C@H](CCCNC(=N)N)NC(=O)[C@H](Cc1c[nH]c2ccccc12)NC(=O)[C@H](CCC(N)=O)NC(=O)[C@H](Cc1c[nH]c2ccccc12)NC(=O)[C@H](CCCNC(=N)N)NC(=O)CCCCCN)C(N)=O  IC50 (Caco-2; cell growth or viability, MTT): 40 µM
O=C1C[C@@H](c2ccc(O)cc2)Oc2cc(O)ccc21  IC50 (MCF7 breast cancer; cell growth): > 250 µM
CNC(=O)c1cc(Oc2ccc(NC(=O)Nc3ccc(Cl)c(C(F)(F)F)c3)c(F)c2)ccn1  IC50 (MHCC97H; cell growth or viability, MTT; 48 h): 0.95 µM
COc1ccc(NC(=O)Cn2cnc3ccccc3c2=O)c(N)c1  IC50 (MDA-MB-231; cell growth or viability, crystal violet; 48 h): > 100 µM
COc1ccc(C[C@H]2NC(=O)/C=C/C[C@@H]([C@H](C)[C@@H](OC(=O)CNC(=O)OCc3cc(NC(=O)CCCc4cn(CCC(=O)NCCCC[C@@H]5NC(=O)[C@@H](Cc6ccccc6)NC(=O)[C@H](CC(=O)O)NC(=O)CNC(=O)[C@H](CCCNC(=N)N)NC5=O)nn4)cc(O[C@@H]4O[C@H](C(=O)O)[C@@H](O)[C@H](O)[C@H]4O)c3)[C@@H](Cl)c3ccccc3)OC(=O)[C@H](CC(C)C)OC(=O)C(C)(C)CNC2=O)cc1Cl  IC50 (M21; cytotoxicity, resazurin; 2 h plus 70 h incubation, without β-glucuronidase): 0.303 ± 0.0269 µM
CC[C@H](C)[C@@H]1NC(=O)[C@H](CCC(=O)O)NC(=O)[C@H](C)NC(=O)[C@H](CC(C)C)NC(=O)[C@H](CC(C)C)NC(=O)C2(CCCC=CCCCCCC[C@@](C)(C(=O)N[C@@H](CC(N)=O)C(=O)N[C@@H](CC(C)C)C(=O)N[C@@H](CO)C(N)=O)NC(=O)[C@H](CCCCN)NC1=O)CCCC=CCCC[C@](C)(NC(=O)[C@H](CCCNC(=N)N)NC(=O)[C@H](CC(N)=O)NC(=O)[C@H](CCC(=O)O)NC(=O)[C@@H]1CCCN1C(=O)[C@H](CC(=O)O)NC(=O)[C@H](CC(N)=O)NC(=O)[C@@H](N)CC(=O)O)C(=O)N[C@@H](C)C(=O)N[C@@H](CCCCN)C(=O)N[C@@H](CCCCN)C(=O)N2 (stereo partly shown)  IC50 (HCT-116 expressing NanoLuc-HaloTag; intracellular peptide delivery, NanoBRET; 24 h, 37 °C, 1% DMSO): 0.0071 µM
O=C(NC12CC3CC(CC(C3)C1)C2)c1cc2ccccc2[nH]1  IC50 (KNS-42; cell growth or viability, resazurin; 72 h): 0.33 µM
COC(=O)[C@@]1(O)C[C@H]2O[C@]1(C)n1c3ccccc3c3c4c(c5c6ccccc6n2c5c31)C(=O)NC4  IC50 (HeLa expressing Ub(G76V)-GFP; Ub(G76V)-GFP degradation, inhibitor, cycloheximide chase): 10 ± 4 µM
C=C(C)[C@@H]1CCC(C)=C[C@H]1c1c(O)cc(CCCCC)cc1O  IC50 (SK-OV-3 (HER2-positive); cell viability, MTT; 72 h): 13.8 µM
Cc1ccc(S(=O)(=O)N[C@@H](Cc2ccccc2)C(=O)CCl)cc1  IC50 (HEK293 expressing MOR; cAMP overshoot, inhibitor, HTRF cAMP; with: morphine then naloxone): 18.4 µM
COc1cc(C(=O)c2oc3ccccc3c2N)cc(OC)c1OC  IC50 (L1210; cell growth or viability): 32.4 µM
C#CCc1c(Cl)nc(N)nc1Cl  IC50 (mouse peritoneal cells; nitric oxide production, Griess; 24 h, with: LPS plus IFN-gamma): 9 µM
CN[C@@](C)(C[18F])C(=O)O  tracer uptake (MDA-MB-468 tumour model; host not given, bone; 15 min, tumour-bearing): 2.2 %ID/g
CCOC(=O)C[C@H](O)COC(=O)/C=C/CCl  IC50 (RAW264.7; NO release, inhibitor; LPS-stimulated): 4.5 µM
O=C1[O][Pt]2([NH][C@@H]3CCCC[C@H]3[NH]2)[O]C1=O  IC50 (VX2; MTT; 24 h): 24.4 ± 2.07 µM
C[C@H]1CNCCc2ccc(Cl)cc21  AUC(0-inf) (male Sprague-Dawley rat, plasma; subcutaneous, pimavanserin 0.5 + lorcaserin 0.5 mg/kg, pimavanserin 15 min earlier): 28.5 ± 1.88 ng·h/mL
N.N.[Cl][Pt][Cl]  IC50 (Vero E6; cytotoxicity, crystal violet staining; 96 h): 2.06 ± 0.02 µM
N#Cc1ccc(-c2ccc(-c3ccco3)o2)c(F)c1  mutant frequency (Salmonella enterica; TA1535; 10 µM, 48 h, with: sodium azide after pre-exposure; baseline: sodium azide alone): 37%
COc1ccc(C[C@H]2NC(=O)/C=C/C[C@@H]([C@H](C)[C@@H](OC(=O)CNC(=O)OCc3ccc(NC(=O)[C@H](C)NC(=O)[C@@H](NC(=O)CCc4cn(CCOCCOCCOCCOCC(=O)NCc5ccc(CN6C(=O)[C@H]7CC(=O)N[C@H](C(=O)O)CC(=O)NCC(=O)N[C@@H](CCCNC(=N)N)C(=O)NC[C@H]6C(=O)N7)cc5)nn4)C(C)C)cc3)[C@@H](Cl)c3ccccc3)OC(=O)[C@H](CC(C)C)OC(=O)C(C)(C)CNC2=O)cc1Cl  IC50 (M21 human melanoma (integrin αvβ3-positive); cell viability, MTT; 2 h treatment plus 70 h): 0.123 ± 0.0186 µM
CC(=N)NCCCC[C@H](N)C(=O)O  IC50 (mouse peritoneal cells; nitric oxide production, Griess; 24 h, with: LPS plus IFN-gamma): 8.14 µM
CN(C)c1cc2c(Nc3ccc4c(cnn4Cc4ccccc4)c3)ncnc2cn1  IC50 (H3255 (EGFR L858R); cell viability, Alamar Blue; 120 h): 0.67 ± 0.1 µM
N.N.[Cl][Pt][Cl]  IC50 (NCI-H1975; cell growth or viability, MTT; 72 h): 9.77 µM

A few entries again:
Cc1ccc(NC(=O)Cn2cnc3ccccc3c2=O)c(O)c1  IC50 (MDA-MB-231; cell growth or viability, crystal violet; 48 h): > 100 µM
COc1cc2c(c(OC)c1OC)-c1ccc(N)c(=O)cc1[C@@H](NC(C)=O)CC2  IC50 (HT-1080 MT1-MMP positive; cell viability, MTT; 24 h exposure, read 96 h post treatment): 0.036 ± 0.005 µM
COC(=O)[C@@]1(O)C[C@H]2O[C@]1(C)n1c3ccccc3c3c4c(c5c6ccccc6n2c5c31)C(=O)NC4  IC50 (HeLa expressing Ub(G76V)-GFP; Ub(G76V)-GFP degradation, inhibitor, cycloheximide chase): 10 ± 4 µM
CN[C@@](C)(C[18F])C(=O)O  tracer uptake (MDA-MB-468 tumour model; host not given, bone; 15 min, tumour-bearing): 2.2 %ID/g
